# Measured values pooled from the literature.
# Each line is one published result; not all experiments were run side by side. Several values in a cell are separate wells, animals, samples, runs or records. ± gives the spread as reported.
# B1: PPM1B (human); sequence looked up; chain GAFLDKPKTEKHNAHGAGNGLRYGLSSMQGWRVEMEDAHTAVVGIPHGLEDWSFFAVYDGHAGSRVANYCSTHLLEHITTNEDFRAAGKSGSALELSVENVKNGIRTGFLKIDEYMRNFSDLRNGMDRSGSTAVGVMISPKHIYFINCGDSRAVLYRNGQVCFSTQDHKPCNPREKERIQNAGGSVMIQRVNGSLAVSRALGDYDYKCVDGKGPTEQLVSPEPEVYEILRAEEDEFIILACDGIWDVMSNEELCEYVKSRLEVSDDLENVCNWVVDTCLHKGSRDNMSIVLVCFSNAPKVSDEAVKKDSELDKHLESRVEEIMEKSGEEGMPDLAHVMRILSAENIPNLPPGGGLAGKRNVIEAVYSRLNPHRESDGASDEAEESGSQGKLVEALRQMRINHRGNYRQLLEEMLTSYRLAKVEGEESPAEPAATATSSNSDAGNPVTMQESHTESESGLAELDSSNEDAGTKMSGEKI
# B2: human ADP/ATP translocase 1; sequence looked up; chain GDHAWSFLKDFLAGGVAAAVSKTAVAPIERVKLLLQVQHASKQISAEKQYKGIIDCVVRIPKEQGFLSFWRGNLANVIRYFPTQALNFAFKDKYKQLFLGGVDRHKQFWRYFAGNLASGGAAGATSLCFVYPLDFARTRLAADVGKGAAQREFHGLGDCIIKIFKSDGLRGLYQGFNVSVQGIIIYRAAYFGVYDTAKGMLPDPKNVHIFVSWMIAQSVTAVAGLVSYPFDTVRRRMMMQSGRKGADIMYTGTVDCWRKIAKDEGAKAFFKGAWSNVLRGMGGAFVLVLYDEIKKYV
# B3: human ROCK2; sequence looked up; chain MSRPPPTGKMPGAPETAPGDGAGASRQRKLEALIRDPRSPINVESLLDGLNSLVLDLDFPALRKNKNIDNFLNRYEKIVKKIRGLQMKAEDYDVVKVIGRGAFGEVQLVRHKASQKVYAMKLLSKFEMIKRSDSAFFWEERDIMAFANSPWVVQLFYAFQDDRYLYMVMEYMPGGDLVNLMSNYDVPEKWAKFYTAEVVLALDAIHSMGLIHRDVKPDNMLLDKHGHLKLADFGTCMKMDETGMVHCDTAVGTPDYISPEVLKSQGGDGFYGRECDWWSVGVFLYEMLVGDTPFYADSLVGTYSKIMDHKNSLCFPEDAEISKHAKNLICAFLTDREVRLGRNGVEEIRQHPFFKNDQWHWDNIRETAAPVVPELSSDIDSSNFDDIEDDKGDVETFPIPKAFVGNQLPFIGFTYYRENLLLSDSPSCRETDSIQSRKNEESQEIQKKLYTLEEHLSNEMQAKEELEQKCKSVNTRLEKTAKELEEEITLRKSVESALRQLEREKALLQHKNAEYQRKADHEADKKRNLENDVNSLKDQLEDLKKRNQNSQISTEKVNQLQRQLDETNALLRTESDTAARLRKTQAESSKQIQQLESNNRDLQDKNCLLETAKLKLEKEFINLQSALESERRDRTHGSEIINDLQGRICGLEEDLKNGKILLAKVELEKRQLQERFTDLEKEKSNMEIDMTYQLKVIQQSLEQEEAEHKATKARLADKNKIYESIEEAKSEAMKEMEKKLLEERTLKQKVENLLLEAEKRCSLLDCDLKQSQQKINELLKQKDVLNEDVRNLTLKIEQETQKRCLTQNDLKMQTQQVNTLKMSEKQLKQENNHLMEMKMNLEKQNAELRKERQDADGQMKELQDQLEAEQYFSTLYKTQVRELKEECEEKTKLGKELQQKKQELQDERDSLAAQLEITLTKADSEQLARSIAEEQYSDLEKEKIMKELEIKEMMARHKQELTEKDATIASLEETNRTLTSDVANLANEKEELNNKLKDVQEQLSRLKDEEISAAAIKAQFEKQLLTERTLKTQAVNKLAEIMNRKEPVKRGNDTDVRRKEKENRKLHMELKSEREKLTQQMIKYQKELNEMQAQIAEESQIRIELQMTLDSKDSDIEQLRSQLQALHIGLDSSSIGSGPGDAEADDGFPESRLEGWLSLPVRNNTKKFGWVKKYVIVSSKKILFYDSEQDKEQSNPYMVLDIDKLFHVRPVTQTDVYRADAKEIPRIFQILYANEGESKKEQEFPVEPVGEKSNYICHKGHEFIPTLYHFPTNCEACMKPLWHMFKPPPALECRRCHIKCHKDHMDKKEEIIAPCKVYYDISTAKNLLLLANSTEEQQKWVSRLVKKIPKKPPAPDPFARSSPRTSMKIQQNQSIRRPSRQLAPNKPS
# UniProt Q64663, sequence (whole entry, unmodified, looked up): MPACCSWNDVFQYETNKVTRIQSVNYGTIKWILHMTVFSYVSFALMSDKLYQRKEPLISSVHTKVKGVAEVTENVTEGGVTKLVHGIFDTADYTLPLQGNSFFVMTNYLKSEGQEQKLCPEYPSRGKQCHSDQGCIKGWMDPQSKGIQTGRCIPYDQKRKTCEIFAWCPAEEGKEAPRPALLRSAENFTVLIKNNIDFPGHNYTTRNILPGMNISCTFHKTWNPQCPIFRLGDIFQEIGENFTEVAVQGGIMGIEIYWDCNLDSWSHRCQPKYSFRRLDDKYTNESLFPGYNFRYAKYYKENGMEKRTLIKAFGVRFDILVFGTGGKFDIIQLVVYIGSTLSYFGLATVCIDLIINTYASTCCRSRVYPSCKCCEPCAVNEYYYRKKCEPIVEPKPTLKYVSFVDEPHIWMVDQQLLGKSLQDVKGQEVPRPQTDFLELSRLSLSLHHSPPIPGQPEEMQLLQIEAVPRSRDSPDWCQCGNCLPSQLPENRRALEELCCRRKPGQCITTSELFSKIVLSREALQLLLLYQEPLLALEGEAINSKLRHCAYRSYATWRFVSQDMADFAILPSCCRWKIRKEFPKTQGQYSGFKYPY
Molecule,tested on,test,test system,setting,scale,quantity,value
11-deoxycorticosterone,CYP11B2 (human),"substrate binding, stopped-flow global kinetic fitting",purified enzyme,"model, 4-state, linear IF, added: 40-fold excess adrenodoxin",,Kd,1.82 µM
B1 (PPM1B),CYB5R4 knockout human cells,"PP4 interaction, 3xFLAG-PP4C IP-MS",,concentration not given,relative to: CYB5R4 KO over parental,log2 fold change,-0.06
GSGAGICTIV,"construct, MBP fusion, human SCRIB, PDZ 3-4",automated holdup,"peptide, crude extract","concentration not given, uncorrected, unit not given","relative to: biotin control resin, higher = stronger binding",binding intensity,0.044
insulin,,LC-MS/MS,prepared human sample,one freeze-thaw cycle,,concentration,11.2 ng/mL
Peginesatide,UT7/EPO,"RT-qPCR, refers to: EGR4",,"concentration not given, 90 min, normalized to HPRT1",relative to: vehicle,mRNA level,6.8 fold
PKRSFIESNV,"construct, MBP fusion, human SCRIB, PDZ 3-4",automated holdup,"peptide, purified PDZ protein","concentration not given, unit not given","relative to: biotin control resin, higher = stronger binding",binding intensity,0.607
colistin,Pseudomonas aeruginosa,,clinical isolate RKI 613/16,,,MIC,1 µg/mL
B2 (human ADP/ATP translocase 1),PP6C (human),"co-immunoprecipitation, IP-MS",CYB5R4 knockout cells,concentration not given,relative to: CYB5R4 knockout over parental,log2 fold change,-0.12
Polymyxin B,Staphylococcus aureus,DiSC3(5) fluorescence,,"concentration not given, 90 min",higher = more depolarisation,membrane depolarisation,459 a.u. and 443 a.u. and 383 a.u.
BzATP,"P2X purinoceptor 7 (P2rx7, Rattus norvegicus, UniProt Q64663, Q143A)","ion current, agonist, two-electrode voltage clamp",Xenopus oocytes,1.2 µM,,normalized current,0.075 and 0.04 and 0.024
B3 (human ROCK2),CYB5R4 knockout human cells,"PP4 interaction, 3xFLAG-PP4C IP-MS",,concentration not given,relative to: CYB5R4 KO over parental,log2 fold change,0.0357
adrenomedullin,,RP-HPLC,HALO Phenyl-hexyl column,"25 µM, acetic acid/methanol, 10 min gradient",,retention time,7.92 min
"FNA / CGLSGLGVA-NH2 ([18F]FNA-labelled, C-amide)",,gamma counting,"peptide, glioblastoma mice, skull bone","60 min, added: CooP blocking, 500-fold excess",,tissue uptake,0.35 %ID/g
"FGA (Homo sapiens, UniProt P02671)","RASA2 (Homo sapiens, UniProt Q15283)",cross-linking MS,,added: DSSO,,cross-linked residues,K157 to K820
human AHSA1,PP6C (human),"co-immunoprecipitation, IP-MS",CYB5R4 knockout cells,concentration not given,relative to: CYB5R4 knockout over parental,log2 fold change,1.27
MTVCNASQRQAHAQATAVSL,H2009,phage binding,peptide,,relative to: targeting over control phage,selectivity ratio,2.2 ± 0.96
GSGAGKETSF,"construct, MBP fusion, human SCRIB, PDZ 3-4",automated holdup,"peptide, crude extract","concentration not given, uncorrected, unit not given","relative to: biotin control resin, higher = stronger binding",binding intensity,0.614
cotadutide,,"metabolomics, refers to: hepatic asparagine","ob/ob mice on AMLN diet, NASH model, liver",dose not given,,metabolite level,0.92 ± 0.07 scaled intensity

# Some of these lines once more:
Molecule,tested on,test,test system,setting,scale,quantity,value
"FGA (Homo sapiens, UniProt P02671)","RASA2 (Homo sapiens, UniProt Q15283)",cross-linking MS,,added: DSSO,,cross-linked residues,K157 to K820
human AHSA1,PP6C (human),"co-immunoprecipitation, IP-MS",CYB5R4 knockout cells,concentration not given,relative to: CYB5R4 knockout over parental,log2 fold change,1.27
MTVCNASQRQAHAQATAVSL,H2009,phage binding,peptide,,relative to: targeting over control phage,selectivity ratio,2.2 ± 0.96
